Measurements gathered from unrelated publications.
Protocols differ between the studies behind these lines. Values joined by “and” are separate records of one study, mostly repeats; a detail may differ. ± marks the error that the study gave. ≈ marks a conversion by molar mass, not a printed value.

Structure (SMILES) | assay | system | setting | scale | measurement | value
O=C([O-])CN1CCN(CC(=O)[O-])CCN(C(CO)C(O)CO)CCN(CC(=O)[O-])CC1.[Dy+3] (stereo not shown) |  | cynomolgus monkey, skin | dose not given, day 5 |  | lanthanide tissue concentration | 0.37 ± 0.14 nmol/g
CCCCCCCCCCO[Si](CCCCN(C)C)(OCCCCCCCCCC)OCCCCCCCCCC |  |  | pH 5.5, formulated |  | zeta potential | 3.4 mV
COCC1CN(C2CCN(c3cc(OC)c(Nc4ncc(Br)c(Nc5ccc6c(c5P(C)(C)=O)OCCO6)n4)cc3C)CC2)C1 | first-in-human trial | human | oral, 150 mg once daily | treatment-related leading to permanent discontinuation | adverse events | 16.7%
COc1cccc(OC)c1-c1cc(C(=O)NC2(C(=O)O)C3CC4CC(C3)CC2C4)nn1-c1ccc(C(=O)N(C)CCCN(C)C(=O)[C@H](CCCCNC(=O)[C@H](CC(C)C)NC(=O)C2OC2C(=O)O)NC(=O)CN2CCN(CC(=O)[O-])CCN(CC(=O)[O-])CCN(CC(=O)[O-])CC2)cc1C(C)C.[177Lu+3] (mixture of isomers) |  | mouse, HT-29 xenograft | 72 h post injection, biodistribution | baseline: tumour over lung uptake | tumour-to-lung ratio | 7.65
CN(O)C(=O)CCC(=O)NCCCN(CCCCN(CCCNC(=O)CCC(=O)N(C)O)C(=O)CCC(=O)N(C)O)C(=O)CCC(=O)N(C)O.[89Zr] |  | mouse, lung | 24 h |  | tracer uptake | 0.01 %ID/g
[123I]c1ccc2nc(-c3ccc(-n4ccnn4)nc3)cn2c1 |  | male Wistar rat, blood | intravenous, 4 MBq, 14 h |  | tracer uptake | 0.015 %ID/g
CC(=O)N[C@@H](C)C(=O)N[C@@H](CCC(=O)O)C(=O)N[C@H]1CS/C=C\CCC[C@@H](C(=O)N[C@@H](C)C(=O)N[C@@H](Cc2ccc(O)cc2)C(N)=O)NC(=O)[C@H](C)NC(=O)[C@H](CCCNC(=N)N)NC(=O)[C@H](C)NC1=O | circular dichroism | 10 mM phosphate buffer | pH 7.4, 20 °C |  | helicity | 46%
C=CC[C@@H]1/C=C(\C)C[C@H](C)C[C@H](OC)[C@H]2O[C@@](O)(C(=O)C(=O)N3CCCC[C@H]3C(=O)O[C@H](/C(C)=C/[C@@H]3CC[C@@H](O)[C@H](OC)C3)[C@H](C)[C@@H](O)CC1=O)[C@H](C)C[C@@H]2OC |  | kidney transplant recipients, whole blood | oral, dose not given, all patients, limited sampling |  | dose-normalized AUC(0-12h) | 137 ng·h/mL
CCCCCCCCCCCCCC(=O)N[C@@H](Cc1ccccc1)C(=O)N[C@H](C(=O)N[C@@H](CCC(=O)O)C(=O)N[C@H](C(=O)N1CCC[C@H]1C(=O)N[C@H](C(=O)N[C@H](C(=O)O)[C@@H](C)CC)[C@@H](C)O)[C@@H](C)CC)[C@@H](C)O |  |  |  |  | solubility limit | ≤ 200 µM
CC(C)C[C@@H]1NC(=O)[C@H](C(C)C)NC(=O)[C@H](Cc2c[nH]c3ccccc23)NC(=O)[C@@H]2CSSC[C@H](NC(=O)[C@H](Cc3ccc(O)cc3)NC(=O)[C@H](C(C)C)NC(=O)[C@H](CCCNC(=N)N)NC(=O)CNC(=O)[C@H]3CCCN3C1=O)C(=O)N[C@@H](CCC(N)=O)C(=O)N1CCC[C@H]1C(=O)NCC(=O)N[C@@H](Cc1c[nH]c3ccccc13)C(=O)N2 |  | Caco-2 |  |  | Papp B→A | 10.5 ×10⁻⁶ cm/s
Cc1ccc(CN2C(=O)/C(=N\c3ccc(Cl)cc3Br)c3ccccc32)cc1 |  | mouse, blood | 150 mg/kg |  | MCV | 46.03 ± 0.04 fL
CC[C@H](C)[C@H](NC(=O)[C@H](Cc1ccccc1)NC(=O)[C@H](CCC(=O)O)NC(=O)[C@H](CCCCN)NC(=O)[C@H](C)NC(=O)[C@H](C)NC(=O)[C@H](CCC(N)=O)NC(=O)CNC(=O)[C@H](CCC(=O)O)NC(=O)[C@H](CC(C)C)NC(=O)[C@H](Cc1ccc(O)cc1)NC(=O)[C@H](CO)NC(=O)[C@H](CO)NC(=O)[C@@H](NC(=O)[C@H](CC(=O)O)NC(=O)[C@H](CO)NC(=O)[C@@H](NC(=O)[C@H](Cc1ccccc1)NC(=O)[C@@H](NC(=O)CNC(=O)[C@H](CCC(=O)O)NC(=O)[C@H](C)NC(=O)[C@@H](N)Cc1c[nH]cn1)[C@@H](C)O)[C@@H](C)O)C(C)C)C(=O)N[C@@H](C)C(=O)N[C@@H](Cc1c[nH]c2ccccc12)C(=O)N[C@@H](CC(C)C)C(=O)N[C@H](C(=O)N[C@@H](CCCNC(=N)N)C(=O)NCC(=O)N[C@@H](CCCNC(=N)N)C(=O)NCC(=O)O)C(C)C |  | male ICR mice, plasma | intravenous, 1 mg/kg |  | AUC extrapolated | 1.52% and 0.14%
CC[C@H](C)[C@H](NC(=O)[C@H](CC(N)=O)NC(=O)[C@@H](N)CCSC)C(=O)N[C@@H](CCSC)C(=O)N[C@@H](CC(=O)O)C(=O)N[C@@H](Cc1ccccc1)C(=O)N[C@@H](CC(N)=O)C(=O)N[C@H](C(=O)N[C@@H](CCCCN)C(=O)N[C@@H](CCCCN)C(=O)N[C@@H](CC(C)C)C(=O)N[C@@H](C)C(=O)N[C@@H](C)C(=O)N[C@@H](CC(=O)O)C(=O)N[C@@H](C)C(=O)NCC(=O)N[C@H](C(=O)N[C@@H](Cc1c[nH]c2ccccc12)C(=O)N[C@@H](CC(C)C)C(=O)N[C@@H](CO)C(=O)N[C@@H](CCCNC(=N)N)C(=O)N[C@@H](C)C(=O)N[C@H](C(=O)N[C@@H](CCC(N)=O)C(=O)N[C@@H](Cc1ccccc1)C(=O)N[C@H](C(=O)N[C@@H](CCC(=O)O)C(=O)N[C@@H](CCC(=O)O)C(=O)N[C@@H](CCCCN)C(=O)N[C@@H](CC(C)C)C(=O)NCC(=O)N[C@@H](CCC(N)=O)C(=O)N[C@@H](C)C(N)=O)[C@@H](C)O)C(C)C)[C@@H](C)O)C(C)C | circular dichroism | 25% DOPS/75% DOPC liposomes | 1 mM lipid |  | helical content | 35%
O=C(Nc1cnccc1-c1ccc([18F])nc1)c1ccnc(NC(=O)C2CC2)c1 | PET imaging | FVB/NJ mice, both sexes, liver | intravenous, 60 min post-injection, P-gp inhibited, added: tariquidar 15 mg/kg iv, 2 h before |  | SUV | 8.16
C=CC(=O)Nc1cc(Nc2nccc(-c3cn(C)c4ccccc34)n2)c(OC)cc1N(C)CCNC | storage stability | human dried blood spots | 72 h, -80 °C, low QC level |  | recovery | 90.3%
CC[C@H](C)[C@H](NC(=O)[C@H](N)Cc1ccc(O)cc1)C(=O)N[C@H]1CSSC[C@@H](C(=O)N(C)[C@H](C(=O)N[C@@H](CCCCN)C(=O)N[C@@H](CCCCN)C(=O)N[C@@H](CCCCN)C(N)=O)[C@@H](C)CC)NC(=O)[C@H](CCCNC(=N)N)NC(=O)[C@H](Cc2c[nH]cn2)NC(=O)[C@H](C)NC(=O)CN(C)C(=O)[C@H](Cc2c[nH]c3ccccc23)NC(=O)[C@H](CC(=O)O)NC(=O)[C@H](CCC(N)=O)NC(=O)[C@H](Cc2cn(C)c3ccccc23)NC(=O)[C@H](C(C)C)NC1=O |  | cynomolgus monkey, vitreous | intravitreal, dose not given, C3-saturating levels |  | intraocular residence | > 3 months
CCCC[C@H](NC(=O)CNC(=O)CNC(=O)[C@H](CCCCNC(=O)[C@H](CC(=O)O)NC(=O)C(C)c1ccc(CC(C)C)cc1)NC(=O)CN1CCN(CC(=O)O)CCN(CC(=O)O)CCN(CC(=O)O)CC1)C(=O)N[C@H]1CC(=O)NCCCC[C@@H](C(N)=O)NC(=O)[C@H](Cc2c[nH]c3ccccc23)NC(=O)[C@H](CCCNC(=N)N)NC(=O)[C@@H](Cc2ccccc2)NC(=O)[C@H](Cc2c[nH]cn2)NC1=O (stereo partly shown) [lutetium-177 labelled] |  | C57 mice, tumour | intravenous, 0.037 MBq, 0.5 h | baseline: kidney | tumour-to-tissue ratio | 1.38
O=C(NNCc1ccccc1)C1(C(F)(F)F)CC1 |  | PBS | pH 7.4, 25 °C, 2% DMSO |  | solubility | 460 µM (≈ 119 µg/mL)
C/C(N)=N/C(=N\S(=O)(=O)c1ccc(C(F)(F)F)cc1)N1C[C@H](c2ccccc2)C(c2ccc(Cl)cc2)=N1 |  | C57BL/6 mouse male, skeletal muscle | intravenous, 10 mg/kg | baseline: tissue AUC(0-last) over plasma | tissue/plasma ratio | ~2
COCCN(C)CC(=O)NC(Cc1ccc(-c2ccccc2)cc1)B(O)O (stereo not shown) |  | Caco-2 |  |  | Papp A→B | 18 ×10⁻⁶ cm/s
CC(C)C[C@H](NC(=O)[C@H](CCCN)NC(=O)CNC(=O)[C@@H](NC(=O)[C@H](C)NC(=O)[C@@H]1CSCSC[C@H](NC(=O)CC[C@H](N)C(=O)O)C(=O)N[C@@H](CC(N)=O)C(=O)N[C@@H]([C@@H](C)O)C(=O)N[C@@H](C)C(=O)N[C@@H]([C@@H](C)O)C(=O)N1)[C@@H](C)O)C(=O)N[C@@H](C)C(=O)N[C@@H](CCC(=O)O)C(=O)N[C@@](C)(Cc1ccccc1)C(=O)N[C@@H](CC(C)C)C(=O)N[C@H](C(=O)N[C@@H](CCCNC(=N)N)C(=O)N[C@@H](CO)C(=O)N[C@@H](CO)C(=O)N[C@@H](CC(N)=O)C(=O)N(C)[C@@H](CC(N)=O)C(=O)N[C@@H](Cc1ccccc1)C(=O)NCC(=O)N1CCC[C@H]1C(=O)N[C@@H](CCCCNC(=O)CC[C@H](NC(=O)CC[C@H](NC(=O)CCCCCCCCCCCCCCCCCCC(=O)O)C(=O)O)C(=O)O)C(=O)N[C@@H](CC(C)C)C(=O)N1CCC[C@H]1C(=O)N1CCC[C@H]1C(=O)N[C@H](C(=O)N[C@@H](CCC(=O)O)C(=O)N[C@H](C(=O)NCC(=O)N[C@@H](CO)C(=O)N[C@@H](CC(N)=O)C(=O)N[C@H](C(=O)N[C@@H](Cc1ccc(O)cc1)C(N)=O)[C@@H](C)O)C(C)C)[C@@H](C)O)C(C)C |  | healthy human | subcutaneous, 12 mg |  | %AUC extrapolated | 6.4%
COc1cccc(OC)c1-c1cc(C(=O)NC2(C(=O)O)C3CC4CC(C3)CC2C4)nn1-c1ccc(C(=O)NCCNC(=O)[C@H](CCCCNC(=O)[C@H](CC(C)C)NC(=O)C2OC2C(=O)O)NC(=O)CN2CCN(CC(=O)[O-])CCN(CC(=O)[O-])CCN(CC(=O)[O-])CC2)cc1C(C)C.[177Lu+3] (mixture of isomers) |  | mouse HT-29 xenograft | 24 h, biodistribution | baseline: tumour over large intestine | tumour-to-large intestine ratio | 17
C=C(NC(=O)c1csc(-c2nc3c(cc2O)-c2nc(cs2)C(=O)NC(C(C)O)C(=O)NC(=C(C)OC)c2nc(cs2)C(=O)NC2c4nc(cs4)C(=O)NC(COC(=O)c4c5c6c(cccc6n4O)COC(=O)C(OC4CC(C)(O)C(N(C)C)C(C)O4)C2OC5)c2nc-3cs2)n1)C(N)=O (stereo not shown) |  | cynomolgus monkey, both sexes, plasma | intravenous infusion, 3 mg/kg, multiple doses, day 7 |  | AUC(0-last) | 23400 ± 6190 ng·h/mL
COc1cccc(OC)c1-c1cc(C(=O)NC2(C(=O)O)C3CC4CC(C3)CC2C4)nn1-c1ccc(C(=O)N(C)CCCN(C)CCCN(C)C(=O)[C@H](CCCCNC(=O)[C@H](CC(C)C)NC(=O)C2OC2C(=O)O)NC(=O)CN2CCN(CC(=O)[O-])CCN(CC(=O)[O-])CCN(CC(=O)[O-])CC2)cc1C(C)C.[177Lu+3] (mixture of isomers) |  | mouse, HT-29 xenograft | 4 h post injection, biodistribution | baseline: tumour over lung uptake | tumour-to-lung ratio | 6.11
CC[C@H](C)[C@@H]1NC(=O)[C@H](Cc2ccc(O)cc2)NC(=O)CCCSC[C@@H](C(=O)N(CC(=O)N[C@@H](CC(C)C)C(=O)NCC(N)=O)Cc2ccc(F)cc2)NC(=O)[C@H](CC(N)=O)NC(=O)[C@H](CCC(N)=O)NC1=O |  | human | intranasal, 15 µg single dose |  | drug-related headache | 17%

Repeated from above:
Structure (SMILES) | assay | system | setting | scale | measurement | value
[123I]c1ccc2nc(-c3ccc(-n4ccnn4)nc3)cn2c1 |  | male Wistar rat, blood | intravenous, 4 MBq, 14 h |  | tracer uptake | 0.015 %ID/g
